Results pooled from the literature.
Each line is one published result; not all experiments were run side by side.
tmk: Thymidylate kinase (tmk, Mycobacterium tuberculosis, UniProt P9WKE1)
HTR2C: 5-hydroxytryptamine receptor 2C (HTR2C, Homo sapiens, UniProt P28335)
Sequence of UniProt P28335 (whole entry, looked up): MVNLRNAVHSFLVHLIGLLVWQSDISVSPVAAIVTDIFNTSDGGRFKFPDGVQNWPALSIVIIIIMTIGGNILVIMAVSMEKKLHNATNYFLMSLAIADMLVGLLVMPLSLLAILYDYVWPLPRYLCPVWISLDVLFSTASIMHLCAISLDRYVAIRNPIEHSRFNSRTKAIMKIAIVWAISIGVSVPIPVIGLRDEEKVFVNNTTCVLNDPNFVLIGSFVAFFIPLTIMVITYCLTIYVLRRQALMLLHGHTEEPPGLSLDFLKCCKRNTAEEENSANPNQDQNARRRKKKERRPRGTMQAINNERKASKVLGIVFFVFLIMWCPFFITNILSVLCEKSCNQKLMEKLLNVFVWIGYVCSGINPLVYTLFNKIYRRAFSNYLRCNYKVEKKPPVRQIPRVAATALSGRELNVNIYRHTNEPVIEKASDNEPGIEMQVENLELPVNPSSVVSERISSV
TMPRSS2: Transmembrane protease serine 2 (TMPRSS2, Homo sapiens, UniProt O15393)
Sequence of UniProt O15393 (whole entry, looked up): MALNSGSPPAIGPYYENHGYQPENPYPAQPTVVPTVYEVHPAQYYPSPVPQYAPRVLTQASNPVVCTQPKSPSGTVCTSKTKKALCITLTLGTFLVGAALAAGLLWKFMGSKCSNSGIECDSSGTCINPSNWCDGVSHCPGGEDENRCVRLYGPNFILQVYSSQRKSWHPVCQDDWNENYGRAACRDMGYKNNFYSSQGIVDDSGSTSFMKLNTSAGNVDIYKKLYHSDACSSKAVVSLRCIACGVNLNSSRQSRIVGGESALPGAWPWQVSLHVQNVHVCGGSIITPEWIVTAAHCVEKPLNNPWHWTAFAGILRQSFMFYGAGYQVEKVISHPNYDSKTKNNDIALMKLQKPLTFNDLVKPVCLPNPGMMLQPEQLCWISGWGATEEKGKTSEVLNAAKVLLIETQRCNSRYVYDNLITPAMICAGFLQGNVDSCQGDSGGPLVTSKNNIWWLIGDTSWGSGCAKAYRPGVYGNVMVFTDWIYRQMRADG
Sequence of UniProt Q16288 (whole entry, looked up): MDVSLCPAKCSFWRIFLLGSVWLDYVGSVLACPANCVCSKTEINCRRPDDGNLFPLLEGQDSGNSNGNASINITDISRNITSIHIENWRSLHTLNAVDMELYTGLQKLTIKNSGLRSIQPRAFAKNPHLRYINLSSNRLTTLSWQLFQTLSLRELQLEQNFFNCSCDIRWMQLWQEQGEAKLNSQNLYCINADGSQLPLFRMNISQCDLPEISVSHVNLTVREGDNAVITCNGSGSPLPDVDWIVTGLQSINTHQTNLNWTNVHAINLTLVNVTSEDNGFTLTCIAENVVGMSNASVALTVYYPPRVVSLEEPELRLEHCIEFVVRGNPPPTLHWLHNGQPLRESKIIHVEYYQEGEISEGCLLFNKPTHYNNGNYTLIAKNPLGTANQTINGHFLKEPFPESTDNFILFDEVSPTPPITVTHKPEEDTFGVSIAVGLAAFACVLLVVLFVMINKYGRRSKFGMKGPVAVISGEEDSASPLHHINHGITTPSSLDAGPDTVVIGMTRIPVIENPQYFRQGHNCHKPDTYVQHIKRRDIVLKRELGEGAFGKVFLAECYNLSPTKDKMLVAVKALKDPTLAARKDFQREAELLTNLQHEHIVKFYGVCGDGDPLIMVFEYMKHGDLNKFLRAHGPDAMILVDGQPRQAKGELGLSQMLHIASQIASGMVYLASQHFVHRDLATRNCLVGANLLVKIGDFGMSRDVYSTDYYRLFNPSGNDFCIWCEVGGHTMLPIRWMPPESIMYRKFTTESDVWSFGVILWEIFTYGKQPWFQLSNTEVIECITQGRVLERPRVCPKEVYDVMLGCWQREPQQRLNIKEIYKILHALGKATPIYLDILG
Sequence of UniProt Q00537 (whole entry, looked up): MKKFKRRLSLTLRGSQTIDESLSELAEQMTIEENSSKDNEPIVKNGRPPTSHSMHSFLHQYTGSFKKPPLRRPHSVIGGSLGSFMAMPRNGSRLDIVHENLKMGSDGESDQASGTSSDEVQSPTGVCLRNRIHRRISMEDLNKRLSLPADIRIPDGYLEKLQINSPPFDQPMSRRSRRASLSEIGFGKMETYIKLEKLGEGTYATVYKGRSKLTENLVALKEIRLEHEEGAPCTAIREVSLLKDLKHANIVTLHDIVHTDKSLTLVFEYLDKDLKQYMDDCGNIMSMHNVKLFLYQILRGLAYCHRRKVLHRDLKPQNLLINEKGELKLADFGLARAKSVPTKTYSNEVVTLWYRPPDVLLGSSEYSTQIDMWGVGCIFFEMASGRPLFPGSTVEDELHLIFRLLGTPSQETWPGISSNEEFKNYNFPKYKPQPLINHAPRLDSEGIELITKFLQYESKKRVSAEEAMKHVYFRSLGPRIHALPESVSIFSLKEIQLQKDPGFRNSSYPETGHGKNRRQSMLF
Sequence of UniProt P35363 (whole entry, looked up): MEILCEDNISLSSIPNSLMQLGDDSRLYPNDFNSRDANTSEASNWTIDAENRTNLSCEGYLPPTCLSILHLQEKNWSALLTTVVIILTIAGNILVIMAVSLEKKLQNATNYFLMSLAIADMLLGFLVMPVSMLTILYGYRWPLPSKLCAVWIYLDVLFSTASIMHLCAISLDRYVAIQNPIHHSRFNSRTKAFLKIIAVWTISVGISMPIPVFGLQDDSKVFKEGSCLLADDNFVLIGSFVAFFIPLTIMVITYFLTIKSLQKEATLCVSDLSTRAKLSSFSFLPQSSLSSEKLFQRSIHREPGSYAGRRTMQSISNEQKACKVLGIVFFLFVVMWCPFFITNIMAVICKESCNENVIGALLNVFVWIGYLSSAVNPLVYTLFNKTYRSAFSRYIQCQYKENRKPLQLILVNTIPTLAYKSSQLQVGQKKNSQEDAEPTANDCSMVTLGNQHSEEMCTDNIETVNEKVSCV
Sequence of UniProt O15197 (whole entry, looked up): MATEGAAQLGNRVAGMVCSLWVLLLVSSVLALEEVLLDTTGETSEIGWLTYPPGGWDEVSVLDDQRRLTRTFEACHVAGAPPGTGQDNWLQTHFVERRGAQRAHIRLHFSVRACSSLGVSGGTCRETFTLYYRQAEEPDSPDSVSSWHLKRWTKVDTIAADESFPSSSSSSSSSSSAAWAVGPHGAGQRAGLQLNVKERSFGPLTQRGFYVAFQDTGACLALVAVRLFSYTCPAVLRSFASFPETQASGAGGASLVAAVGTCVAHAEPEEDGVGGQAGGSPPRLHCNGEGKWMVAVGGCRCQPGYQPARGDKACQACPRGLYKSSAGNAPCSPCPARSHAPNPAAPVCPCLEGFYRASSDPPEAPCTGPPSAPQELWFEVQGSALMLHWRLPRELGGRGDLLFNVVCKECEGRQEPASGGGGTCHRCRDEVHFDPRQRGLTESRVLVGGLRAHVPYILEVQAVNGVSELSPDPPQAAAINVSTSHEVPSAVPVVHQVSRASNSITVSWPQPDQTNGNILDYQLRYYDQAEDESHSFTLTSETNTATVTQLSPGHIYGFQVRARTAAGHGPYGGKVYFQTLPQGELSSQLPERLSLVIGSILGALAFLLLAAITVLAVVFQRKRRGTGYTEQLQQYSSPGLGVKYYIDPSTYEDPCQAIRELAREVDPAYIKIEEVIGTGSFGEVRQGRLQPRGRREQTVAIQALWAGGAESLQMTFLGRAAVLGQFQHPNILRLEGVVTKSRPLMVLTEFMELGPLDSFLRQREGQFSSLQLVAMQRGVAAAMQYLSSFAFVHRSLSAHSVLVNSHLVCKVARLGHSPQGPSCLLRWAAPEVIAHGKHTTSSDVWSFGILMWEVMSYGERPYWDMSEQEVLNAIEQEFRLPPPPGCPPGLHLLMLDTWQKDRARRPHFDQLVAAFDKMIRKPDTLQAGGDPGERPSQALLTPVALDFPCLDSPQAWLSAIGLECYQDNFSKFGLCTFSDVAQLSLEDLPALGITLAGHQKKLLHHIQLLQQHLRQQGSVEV

SMILES | target or system | assay | test system | conditions | endpoint | value
CCOC(=O)C1=C(C)NC(=NN=c2[nH]c3ccccc3[nH]c2=O)NC1c1ccc(F)cc1 (stereo not drawn) | tmk | enzyme activity, inhibitor, absorbance |  | 1 µg/mL | inhibition | 58.8%
COc1cc(CCNC(C)c2ccccc2)c(OC)cc1C#N (stereo not drawn) | Htr2a (Mus musculus, UniProt P35363) | G protein activation, agonist, BRET |  |  | Emax | 78%
COc1ccc(C(=O)N[C@H]2CC[C@@]3(O)[C@H]4Cc5ccc(O)c6c5[C@@]3(CCN4CC3CC3)[C@H]2O6)s1.Cl | HEK293 | GTPγS binding, agonist, radiometric |  |  | Emax | 13.4%
CC1=C(C(N)=O)C(c2ccc([N+](=O)[O-])o2)NC(=O)N1 (stereo not drawn) | tmk | enzyme activity, inhibitor, absorbance |  | 10 µg/mL | inhibition | 89.8%
COc1cc(CCNCc2ccccc2O)c(OC)cc1C#N | HTR2C | calcium signal, agonist |  |  | Emax | 102%
CC(C)[C@H](NC(=O)[C@H](Cc1ccc(O)cc1)NC(=O)CC12C[C@H]3C[C@@H](C1)C[C@@H](C2)C3)C(=O)N[C@@H](CCCNC(=N)N)C(=O)c1nc2ccccc2s1 | TMPRSS2 | enzyme activity, inhibitor |  | 1 nM | activity vs control | 99%
COc1ncccc1-c1cnn2ccc(N3CCN(C(=O)OC(C)C)CC3)nc12 | EPHB6 (Homo sapiens, UniProt O15197) | binding, competition with immobilised ligand |  | 1 µM | remaining binding | 38%
Cl.N#Cc1ccc(C(=O)N[C@H]2CC[C@@]3(O)[C@H]4Cc5ccc(O)c6c5[C@@]3(CCN4CC3CC3)[C@H]2O6)s1 | HEK293 | GTPγS binding, agonist, radiometric |  |  | Emax | 30.8%
Cc1nn(C)cc1-c1nc2c(N3CCN(Cc4ccc(Cl)cc4)CC3)c(Cl)cnc2[nH]1 | Tyrosine-protein kinase ABL1, phosphorylated (ABL1, Homo sapiens, UniProt P00519, T315I) | binding, competition with immobilised ligand |  | 1 µM | remaining binding | 85%
Cc1cc(Nc2ccc(Cl)c(Cl)c2)n2nc(C)nc2n1 | PFF0160c (Plasmodium falciparum, UniProt Q08210) | enzyme activity, inhibitor, absorbance |  |  | IC50 | 0.175 µM
COc1cc(CCNC(C)c2ccccc2O)c(OC)cc1C#N (single isomer, unassigned; (-)) | HTR2C | G protein activation, agonist, BRET |  |  | Emax | 119%
Nc1ncc(-c2nc(N3CCOCC3)nc(N3CCOCC3)n2)c(C(F)F)n1 | EGFR (Homo sapiens, UniProt P00533, A750P/del747-749) | cell-free assay, competition with immobilised ligand |  | 10 µM | remaining binding | 63%
Cc1cc(Nc2ccc(C)c(Cl)c2)n2nc(C(F)(F)F)nc2n1 | PFF0160c (Plasmodium falciparum, UniProt Q08210, E182D) | enzyme activity, inhibitor, absorbance |  |  | IC50 | 0.156 µM
COC(=O)c1cc(-c2cccc(NC(=O)Nc3ccc(Cl)c(Cl)c3)c2)on1 | Klebsiella pneumoniae | microbial growth, broth dilution | BAA1705 |  | MIC | > 64 mg/L
[2H]c1c([2H])c([C@]2([2H])CCCN2C(=O)C(C)(C)Oc2ccc3cn[nH]c3c2)c([2H])c([2H])c1C([2H])([2H])[2H] | CDK17 (Homo sapiens, UniProt Q00537) | binding, competition with immobilised ligand |  | 1 µM | remaining binding | 81%
CC(=O)N[C@@H](CCC(=O)O)C(=O)N[C@@H](Cc1ccccc1)C(=O)N[C@@H](CCCNC(=N)N)C(=O)c1nc2ccccc2s1 | TMPRSS2 | enzyme activity, inhibitor |  | 1 nM | activity vs control | 60%
COc1cc(CCNCc2ccccc2)c(OC)cc1C#N | HTR2C | calcium signal, agonist |  |  | Emax | 91%
C#Cc1n[nH]c2c(-c3cn([C@@H](C)c4ccccn4)c(=O)[nH]c3=O)cc(F)cc12 | NTRK3 (Homo sapiens, UniProt Q16288) | enzyme activity, inhibitor |  | 0.1 µM | inhibition | 12.1%
CC(=O)N[C@@H](CCC(N)=O)C(=O)N[C@@H](Cc1ccccc1)C(=O)N[C@@H](CCCNC(=N)N)C(=O)CN1CCCCC1 | TMPRSS2 | enzyme activity, inhibitor |  | 1 nM | activity vs control | 98%
COC(=O)c1cc(-c2cccc(NC(=O)Nc3cccc(F)c3)c2)on1 | Klebsiella pneumoniae | microbial growth, broth dilution | BAA1705 |  | MIC | > 64 mg/L
CS(=O)(=O)c1ccc(C(=O)N[C@H]2CC[C@@]3(O)[C@H]4Cc5ccc(O)c6c5[C@@]3(CCN4CC3CC3)[C@H]2O6)s1.Cl | HEK293 | GTPγS binding, agonist, radiometric |  |  | Emax | 39.3%

Some of these lines once more:
SMILES | target or system | assay | test system | conditions | endpoint | value
CC(=O)N[C@@H](CCC(=O)O)C(=O)N[C@@H](Cc1ccccc1)C(=O)N[C@@H](CCCNC(=N)N)C(=O)c1nc2ccccc2s1 | TMPRSS2 | enzyme activity, inhibitor |  | 1 nM | activity vs control | 60%
COc1cc(CCNCc2ccccc2)c(OC)cc1C#N | HTR2C | calcium signal, agonist |  |  | Emax | 91%
C#Cc1n[nH]c2c(-c3cn([C@@H](C)c4ccccn4)c(=O)[nH]c3=O)cc(F)cc12 | NTRK3 (Homo sapiens, UniProt Q16288) | enzyme activity, inhibitor |  | 0.1 µM | inhibition | 12.1%
